Assay results gathered from unrelated publications.
Parts stem from different laboratories: compare values within a part only.

Sample 1 — technique: universal PBM; molecule type: double-stranded DNA, one strand shown; sample: in vitro; concentration: 600 nM; direction: higher = stronger binding
Target: Sal-like protein 4, full length isoform A (SALL4, Homo sapiens, UniProt Q9UJQ4, residues 1-1053)
Sequence of UniProt Q9UJQ4 (whole entry, looked up): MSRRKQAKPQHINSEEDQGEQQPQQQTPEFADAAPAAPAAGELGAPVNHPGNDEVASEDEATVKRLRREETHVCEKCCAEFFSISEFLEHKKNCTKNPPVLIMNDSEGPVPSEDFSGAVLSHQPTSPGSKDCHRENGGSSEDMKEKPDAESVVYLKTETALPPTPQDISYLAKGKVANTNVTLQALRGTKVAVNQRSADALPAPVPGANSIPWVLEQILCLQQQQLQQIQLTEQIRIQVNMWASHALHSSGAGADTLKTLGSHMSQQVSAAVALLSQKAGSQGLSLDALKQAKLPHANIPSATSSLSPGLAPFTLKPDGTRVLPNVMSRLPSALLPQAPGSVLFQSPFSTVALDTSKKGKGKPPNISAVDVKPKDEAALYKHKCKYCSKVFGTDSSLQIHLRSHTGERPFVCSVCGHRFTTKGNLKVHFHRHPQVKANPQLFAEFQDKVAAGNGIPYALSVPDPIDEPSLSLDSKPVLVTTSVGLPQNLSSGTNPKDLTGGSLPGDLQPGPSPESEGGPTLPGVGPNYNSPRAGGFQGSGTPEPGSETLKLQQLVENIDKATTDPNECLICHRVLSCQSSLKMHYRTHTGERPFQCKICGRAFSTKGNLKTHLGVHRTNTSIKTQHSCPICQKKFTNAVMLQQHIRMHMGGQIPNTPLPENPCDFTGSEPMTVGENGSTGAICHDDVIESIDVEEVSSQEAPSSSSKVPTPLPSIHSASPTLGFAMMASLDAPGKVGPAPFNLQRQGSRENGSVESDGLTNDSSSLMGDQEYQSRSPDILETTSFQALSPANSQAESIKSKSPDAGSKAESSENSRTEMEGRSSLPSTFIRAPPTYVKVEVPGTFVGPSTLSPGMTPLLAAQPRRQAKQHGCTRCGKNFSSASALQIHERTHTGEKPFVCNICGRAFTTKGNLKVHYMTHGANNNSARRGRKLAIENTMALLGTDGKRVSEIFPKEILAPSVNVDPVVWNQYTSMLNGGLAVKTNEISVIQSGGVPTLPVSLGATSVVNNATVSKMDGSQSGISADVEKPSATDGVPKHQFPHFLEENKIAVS
Setting: 8-mer, flanks averaged, mean of replicates
Sequence	E-score
GATGGAGA	-0.0537
CCATGGTA	-0.0436
GCGATAGC	-0.0273
ACAATACG	0.0325
GATTACCC	0.0372
ACCATCTA	-0.0319
ATGATTTG	0.116
AGATCGGG	-0.268
CAGTCTCC	-0.198
GACGCATA	0.127
ATCCTGTA	0.196
AGATTGAA	0.226
ACCGTTTA	0.0808
AGAAAGAG	-0.0858
AGTGGTCC	-0.219
CAATGAGA	0.108
TATTCTGA	0.191

Sample 2 — technique: RNA Bind-n-Seq; molecule type: RNA; sample: in vitro; concentration: 365 nM; baseline: no-protein control; direction: higher = stronger binding
Target: RNA binding protein fox-1 homolog 2, RRM domain, GST-SBP tag (RBFOX2, Homo sapiens, UniProt O43251-10, residues 100-194)
Setting: natural RNA segment, single round, ends assumed
All sequences stand within: GGGAGUUCUACAGUCCGACGAUC … UGGAAUUCUCGGGUGCCAA
Residues (chain): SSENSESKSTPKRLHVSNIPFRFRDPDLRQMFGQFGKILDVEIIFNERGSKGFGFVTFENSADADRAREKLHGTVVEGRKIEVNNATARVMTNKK
Sequence	RBNS enrichment (R)
ACCUUGACUUCAUUUAUAUGAAUUUCCACUUUAUUAAAUAAUAGAAAAGAAAAUCCCGGUGCUUGCAGUAGAGUGAUAGGACAUUCUAUGCUUACAGAAAAUAUAGCCAU	0.653
UGAUAGUCCUUGCAAGUAAGUCAAGGUUUUAUCCUGAUUGGAAAUAGAAGACAUUUCCGGUUGAGAGAACAGAUUCGUUGGAAGCUUAACUUUUGUUGCCUCUUAACGCC	0.291
CAGGGUCUAUUCCUUGCGUGGAUUAUGUGGCCGUAGCAUGUUACAGUUCAAACAUGUCUCCACUACCCUGUUAAGAGCAGCCUGGGAACGUACAGGCCAUCAAGACUAUU	0.692
UGGCUCGCUCUGGACCCUGCUCUCCCCAGCCACGUUCUGUAGUCUGUUGUACAUCUCAGGAACCCUCGGUUCCUCCACGGAUGGACGACUGCAGAAUAGAGCAGAAUAGA	0.177
UGUGUCAGUUACACCUUAUCCACAUAGCCUGAGGGUAAUUUUAUACGAUAUUUUAAAUAGUUGUGUACAUGAAGCAUGGUUUGUGGUAACUUAUGUGAGGGGUUUUCCCA	4.63
ACUGCCCCCUCCCUCGGGUUGGGUGGCCCAGCCAGCUGGCCAGCCUCCACUCCCACUCUGCCAGACACCCUGACACCCACCCAGGCUUUGAAGAGCAUGGAGGGGGAGCC	0.775
UUCAAUGUAGACUGCCAUUCUGUGUGGUCUUCCCAUUAAAUGUGAACAUUUUAAUAUGUAUGCAUUCACCUUGCCUCUUGCACAAAUGUCAAAAUGGAAAGAUGGGAAUG	0.323
AGUGCACCGUCUGCUCUGUGAACUCCUCCCACCAGGCCCUUCUUACCCCACGCGUGUCUGUCCCCCUCGUUCUGUAGCGUUUGUACAUAAUAAAACAAUGGAGUGGAGAC	0.5
UCCGUAUCUGGUUGCAAUUGAAAACUGAUGCUUCAGUGAGGGUAUCUAAAAAGGUAAACUGGCAUAUCCAGGGCAAAUGUGGGCUGCCAAUGGCUCAUCUCUAGGGUAAU	0.349
CUUGCCUUGAUCCUGUUGUGGCAGUGUCUGUUCCUGCCCCAGGUGUGCUAUUCACGCAGGUUUAUUCCCUCCAUGGCCUCCGGGCUUUGCAUGUCUAUGAUGUGUGUGUC	4.9
AUAAAGUGUAGUGCAUUGAAACAAAUGAACAAAAAAGUAGAUACUUUUACUAUACAAGGGUGCUGGUGCAGAAAAAAAUAUAUAUAUUUUUGGAAAUGUAGCAUUUUAUA	0.548
CCUUUCAGCCUUGCUGACUUCUCCCUAUAAAAGUAAAGCCUUUUUCUGCCCCAGCUCUGAGACACUUGCAGAUCUUAAGGUCUGAGACUUGCUGAUUUUCUGGUUGGAGU	0.344

Sample 3 — technique: protein-binding microarray; molecule type: double-stranded DNA, one strand shown; sample: in vitro; concentration: 250 nM; setting: 60-bp whole probe; together with: salmon DNA 0.4 mg/ml; baseline: random background probes; direction: higher = stronger binding; all sequences stand within: GCCTAGCAC … GTCTTGATTCGCTTGACGCTGCTG
Target: Interferon regulatory factor 7, full length, phosphomimetic (IRF7, Homo sapiens, UniProt Q92985, residues 1-503, S101K/S471D/S472D/S475D/S476D/S477D/S483D/S484D/S487D)
Construct (chain): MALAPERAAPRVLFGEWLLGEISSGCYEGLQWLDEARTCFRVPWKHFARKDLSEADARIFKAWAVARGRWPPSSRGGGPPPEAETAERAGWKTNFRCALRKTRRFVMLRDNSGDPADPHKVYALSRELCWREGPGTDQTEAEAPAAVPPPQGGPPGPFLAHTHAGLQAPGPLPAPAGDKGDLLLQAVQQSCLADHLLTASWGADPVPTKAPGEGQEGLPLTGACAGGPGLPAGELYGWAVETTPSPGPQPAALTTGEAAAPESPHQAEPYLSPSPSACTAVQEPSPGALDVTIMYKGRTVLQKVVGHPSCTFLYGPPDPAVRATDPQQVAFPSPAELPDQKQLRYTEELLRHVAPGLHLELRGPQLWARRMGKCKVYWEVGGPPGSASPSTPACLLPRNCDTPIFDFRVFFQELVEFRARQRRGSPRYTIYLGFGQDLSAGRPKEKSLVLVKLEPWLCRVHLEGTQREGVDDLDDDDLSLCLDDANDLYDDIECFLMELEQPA
Sequence	log fluorescence [z-score]
ATGTTTTTCATTTTGTTCATGTGCTAG	4.54
GACGGACTGCTTTTCGTGACGTGCTAG	0.0382
TTAGGACTGGGGTTTTGGTTAGTGCTA	0.422
GACGATATCGTGTATCGAGACGTGCTA	-0.324
GACGGTTTCCCTATCCTGACGTGCTAG	2.83
TCACATTTTTTTTCATCACTGTGCTAG	1.09
TTAGGTATCGACACTGGGTGAGTGCTA	0.107
TTAGGTATCGTTTTCCTTTAGTGCTAG	6.34
TTAGATTTCGCGTTTCGATTAGTGCTA	4.06
TCAAATTTTGTCATCTAACTGTGCTAG	-0.192
GACGATTTCAGTTCCGATACGTGCTAG	0.783
GACTATCTCAGTATCGAGACGTGCTAG	0.655

Mixed results
Substance	target	test	test system	setting	how to read	quantity	result
PhoQ, residues 284 288 289 292 302 303 QWQEDG	PhoP, residues 12 14 15 18 19 TQAIL (Escherichia coli, UniProt P23836)	Sort-seq, refers to: YFP reporter	E. coli	PhoQ-PhoP variant library, together with: 10 µM Mg2+	baseline: high Mg2+ state, higher = stronger signaling	fold induction	16.6
